# Results of several laboratories.
# Each line is one published result; not all experiments were run side by side. Numbers after ± are the reported error.
Compound,target or system,test,system,conditions,scale,quantity,result
"O=C(c1ccc(F)cc1)C1CCN(C2Cc3c(cccc3OCC[18F])CC2O)CC1 (single isomer, unassigned; (-))",,,"Sprague-Dawley rat male, brain stem","intravenous, 5 min",,brain uptake,0.683 %ID/g
CN(C)c1ccc(C(=O)NCCCCN2CCN(c3ccccc3O[11CH3])CC2)cc1,,,"male Sprague Dawley rat, muscle","iv, dose not given, with: cyclosporin A pretreatment",reference: cyclosporin A over untreated,uptake ratio,1.18
CSCC[C@@H]1NC(=O)[C@@H]2CSSC[C@H](NC(=O)[C@H](CO)NC(=O)[C@H](C)N)C(=O)N[C@@H](CCCNC(=N)N)C(=O)N[C@@H]([C@@H](C)O)C(=O)N3CCC[C@H]3C(=O)N[C@@H](CCCCN)C(=O)N[C@@H](CC(=O)O)C(=O)N[C@H]3CSSC[C@H](NC(=O)[C@H](CCCCN)NC(=O)[C@H](CCCNC(=N)N)NC(=O)[C@H](CC(N)=O)NC1=O)C(=O)N[C@@H](CCCCN)C(=O)N[C@H]1CSSC[C@H](NC(=O)[C@@H]4CCCN4C(=O)[C@H](CC(=O)O)NC(=O)[C@H](C)NC3=O)C(=O)N[C@@H](C)C(=O)N[C@@H](CCCCN)C(=O)N[C@@H](CCC(=O)O)C(=O)N[C@@H]([C@@H](C)O)C(=O)NCC(=O)N[C@@H](CSSC[C@@H](C(N)=O)NC(=O)[C@H](CCCNC(=N)N)NC(=O)[C@H](CC(N)=O)NC1=O)C(=O)N1CCC[C@H]1C(=O)N[C@@H](Cc1ccc(O)cc1)C(=O)NCC(=O)N[C@@H](CCCCN)C(=O)N2,,,"DA rat pristane-induced arthritis, serum","subcutaneous, 0.1 mg/kg single dose at onset, 21 days",,Cholesterol,79.4 mg/dL
COC(=O)C[C@](O)(CCCC(C)(C)OC(C)=O)C(=O)O[C@@H]1C(OC)=C[C@]23CCCN2CCc2cc4c(cc2[C@H]13)OCO4,,,"CD1 mouse, pancreas","oral, 1 mg/kg, 2 h",,tissue concentration,228 ng/mL
O=C([O-])C[N+]12CC(=O)[O][Re-2]1[O]P(=O)([O-])C2.[C-]#[O+].[C-]#[O+].[C-]#[O+] (stereo not drawn),,HPLC,aqueous solution,"1 d, pH 10, room temperature",,isomer fraction at equilibrium,63%
CC(C)[C@H](NC(=O)CNC(=O)[C@H](CCC(N)=O)NC(=O)[C@H](C)N)C(=O)O,,,human,"intravenous infusion, 45 mg/kg/h, 2 h infusion",,subjects with any adverse event,50%
CN[C@](C)(C[18F])C(=O)O,A549 tumour model,,"host not given, heart","15 min, tumour-bearing",,tracer uptake,3.7 %ID/g
CC(C)(CCCC/C=C/CCCCCC(C)(C)C(=O)O)C(=O)O,,,"beagle dog, plasma","360 mg/kg, NOAEL dose, long-term GLP toxicity",,AUC(0-24 h),2470 µg·h/mL
CC[C@H](C)[C@H](NC(=O)[C@H](CCC(=O)O)NC(=O)[C@H](CCC(=O)O)NC(=O)[C@H](Cc1ccccc1)NC(=O)[C@H](CC(=O)O)NC(=O)CNC(=O)[C@H](CC(N)=O)NC(=O)CNC(=O)CNC(=O)CNC(=O)CNC(=O)[C@@H]1CCCN1C(=O)[C@H](CCCNC(=N)N)NC(=O)[C@@H]1CCCN1C(=O)[C@H](N)Cc1ccccc1)C(=O)N1CCC[C@H]1C(=O)N[C@@H](CCC(=O)O)C(=O)N[C@@H](CCC(=O)O)C(=O)N[C@@H](Cc1ccc(O)cc1)C(=O)N[C@@H](CC(C)C)C(=O)O,,LC-MS/MS,human plasma,"75 days, -80 °C, stability, nominal 30.0 ng/mL",,concentration,29.8 ± 0.3 ng/mL
CCCCCc1cc(O)c2c(c1)OC(C)(C)C1CCC(C(=O)OC3OC(C(=O)O)C(O)C(O)C3O)=CC21 (stereo not drawn),,tube adsorption method,HEK293 microsome incubation,"50 µM, 30 min",,unbound fraction,0.45 ± 0.061
C1=CCCC=CCC1.C1=CCCC=CCC1.[Cl][Hg-]([Cl])[Cl].[Cl][Hg-]([Cl])[Cl].[Pt+][c]1ccccc1P(=Nc1ccccc1)(c1ccccc1)c1ccccc1.[Pt+][c]1ccccc1P(=Nc1ccccc1)(c1ccccc1)c1ccccc1,,NMR,DMSO-d6,1 week,,free COD released,~6%
CC(C)C[C@H](NC(=O)[C@H](CCCCN)NC(=O)[C@H](CCC(=O)O)NC(=O)[C@H](C)NC(=O)[C@@H](NC(=O)[C@H](CCCCN)NC(=O)[C@H](CC(=O)O)NC(=O)[C@H](Cc1ccc(O)cc1)NC(=O)[C@H](Cc1ccccc1)NC(=O)[C@H](C)NC(=O)[C@H](CCCCN)NC(=O)[C@H](CC(C)C)NC(=O)[C@H](Cc1c[nH]c2ccccc12)NC(=O)[C@@H](N)CC(=O)O)C(C)C)C(=O)N[C@@H](CCCCN)C(=O)N[C@@H](CCC(=O)O)C(=O)N[C@@H](C)C(=O)N[C@@H](Cc1ccccc1)C(=O)N1CCC[C@H]1C(=O)N[C@@H](CC(=O)O)C(=O)N[C@@H](Cc1c[nH]c2ccccc12)C(=O)N[C@@H](C)C(=O)N[C@@H](CCCCN)C(=O)N[C@@H](C)C(=O)N[C@@H](C)C(=O)N[C@@H](Cc1ccc(O)cc1)C(=O)N[C@@H](CC(=O)O)C(=O)N[C@@H](CCCCN)C(=O)N[C@@H](C)C(=O)N[C@@H](C)C(=O)N[C@@H](CCC(=O)O)C(=O)N[C@@H](CCCCN)C(=O)N[C@@H](C)C(=O)N[C@@H](CCCCN)C(=O)N[C@@H](CCC(=O)O)C(=O)N[C@@H](C)C(=O)N[C@@H](C)C(=O)O,,,"cynomolgus monkey female, plasma","intravenous infusion, 25 mg/kg, day 1, 30 min infusion",,AUC(0-last),1540 µg·h/mL
C[C@H](CCC(=O)N[C@@H](CCCCNC(=O)C(F)(F)F)C(=O)O)[C@H]1CC[C@H]2[C@@H]3[C@H](O)C[C@@H]4C[C@H](O)CC[C@]4(C)[C@H]3C[C@H](O)[C@]12C,,,"C57BL/6J mice, gallbladder","oral, 50 mg/kg, 5 h",,concentration,5200 µM
CCCCCCCCC=CCCCCCCCC(=O)OCC1OC(n2ccc(N)nc2=O)C(F)(F)C1O (stereo not drawn),,,"female nude mouse, colon xenograft, patient-derived colon tumour","oral, 150 mg/kg, dosed days 1 and 8",,body weight loss,10%
Cc1ccc(C(C)C)cc1.[Cl][Ru+].[O-]c1ccccc1C=NCCNc1ccnc2cc(Cl)ccc12,,shake-flask method,water/n-octanol,pH 6.6,,distribution coefficient D,1.99 ± 0.1
Cc1ccccc1CN1CCC(O)(c2ccc(Cl)c(C(F)(F)F)c2)CC1,,LC-MS,"BALB/c mouse, serum","oral, 50 mg/kg",reference: intraperitoneal route,relative oral bioavailability,< 10%
COc1cc(C(=O)NCCOCCOCCOCCNC(=O)c2ccc([18F])nc2)ccc1NC(=O)C1NC(CC(C)(C)C)C(C#N)(c2ccc(Cl)cc2F)C1c1cccc(Cl)c1F (stereo not drawn),HepG2 tumour model,,"host not given, muscle","30 min, tumour-bearing",,tracer uptake,2.43 %ID/g
CCN(CC)c1ccc2c(-c3ccccc3C(=O)OCCOCC[18F])c3ccc(=[N+](CC)CC)cc-3oc2c1,,PET imaging,"rat, liver","dose not given, 55 min post injection",reference: value at 5 min,liver radioactivity,25%
C/C=C/C=C/C/C=C/CCCCCCCc1cccc(O)c1O,,,"female Kunming mice, tumour-bearing, heart","intravenous, 10 mg/kg, 0.083 h",,tissue concentration,29500 ± 2930 ng/g
[2H]C([2H])([2H])C([2H])([2H])C([2H])([2H])OC(C(=O)OC1CCNCC1)(c1ccccc1)c1ccccc1,,item: creatine phosphokinase increased,healthy Japanese male,"oral, 12 mg once daily, 16 days",,adverse events,14.3%
N=C(N)NCc1ccc(C(=O)NCCCC[C@H](NC(=O)N[C@@H](CCC(=O)O)C(=O)O)C(=O)O)cc1[211At],,,"SCID mouse, PC-3 xenografts, kidneys",2 h,,tissue uptake,89 ± 5.2 %ID/g
CSCC[C@H](NC(=O)[C@H](CC(N)=O)NC(=O)[C@@H](N)Cc1ccccc1)C(=O)N[C@@H](CCC(N)=O)C(=O)N[C@@H](C)C(=O)N[C@@H](CCC(N)=O)C(=O)N[C@@H](CCCNC(=N)N)C(=O)N[C@@H](CCCNC(=N)N)C(=O)N[C@@H](Cc1ccccc1)C(=O)N[C@@H](Cc1ccc(O)cc1)C(=O)N[C@@H](CCC(=O)O)C(=O)N[C@@H](C)C(=O)N[C@@H](CC(C)C)C(=O)N[C@@H](Cc1c[nH]cn1)C(=O)N[C@@H](CC(=O)O)C(=O)NCC(=O)NCC(=O)NCC(=O)NCC(=O)N[C@@H](CO)C(=O)N[C@@H](C)C(=O)N[C@@H](CCC(=O)O)C(=O)N[C@@H](C)C(=O)N[C@@H](CCC(=O)O)C(=O)N[C@@H](C)C(=O)N[C@@H](CCCCN)C(=O)N[C@@H](C)C(=O)N[C@@H](CCCCN)C(=O)N[C@@H](C)C(=O)N[C@@H](CCC(=O)O)C(=O)N[C@@H](C)C(=O)N[C@@H](CCC(=O)O)C(=O)N[C@@H](C)C(=O)N[C@@H](CCCCN)C(=O)N[C@@H](C)C(=O)N[C@@H](CCCCN)C(=O)O,,,EAK peptide fibrils,"overnight, 37 °C, PBS, with: EAK to compound ratio 2:1",,incorporation into fibrils,13%
F[P-](F)(F)(F)(F)F.F[P-](F)(F)(F)(F)F.[Ru+2].c1ccc(-c2ccccn2)nc1.c1ccc(-c2ccccn2)nc1.c1csc(-c2cc3cccnc3c3ncccc23)c1,,,"acetonitrile, air-saturated",room temperature,,singlet oxygen quantum yield,58%
CC[C@H](C)CCCCC(=O)N[C@@H](CCN)C(=O)N[C@H](C(=O)N[C@@H](CCN)C(=O)N[C@H]1CCNC(=O)[C@H]([C@@H](C)O)NC(=O)[C@H](CCN)NC(=O)[C@H](CCN)NC(=O)[C@H](CC(C)C)NC(=O)[C@@H](Cc2ccccc2)NC(=O)[C@H](CCN)NC1=O)[C@@H](C)O,,ELISA,"male CD-1 mouse, urine","subcutaneous, 12.5 mg/kg, 4 doses every 8 h, 24 h urine collection, nephrotoxicity",,urinary cystatin C excretion,591 ng/24 h
COc1nc(CC=C(C)CC=CC(C)=CC(C)C(OC2OC(CO)C(O)C(O)C2O)C(C)=CCO)c(C)c(O)c1OC (stereo not drawn),,,human liver microsomes,,reference: UGT over CYP metabolism,elimination rate ratio,7.38
CN(C)C(CNC(=O)Nc1cc(C(F)(F)F)ccc1N1CCOCC1)c1ccncc1 (stereo not drawn),,,"mouse, serum","intraperitoneal, 120 mg/kg single dose",,serum cholesterol,72 mg/dL
COc1cc2ccnc(Cc3ccc(O[11CH3])c(OC)c3)c2cc1OC,,,"Sprague-Dawley rat, striatum","i.v., 5 min",,brain uptake,0.2 %ID/g
COc1ccc(F)cc1S(=O)(=O)Nc1cnc2c(c1)C(=O)NCCO2,,ultracentrifugation,rat plasma,,,unbound fraction,0.141 to 0.147
CSCC[C@H](NC(=O)CNC(=O)[C@H](CC(=O)O)NC(=O)[C@@H](NC(=O)[C@@H](NC(=O)[C@@H](NC(=O)CNC(=O)[C@H](CCC(N)=O)NC(=O)[C@H](CCSC)NC(=O)[C@H](CC(=O)O)NC(=O)[C@H](C)NC(=O)[C@H](C)NC(=O)[C@@H](NC(=O)[C@H](CO)NC(=O)[C@@H](N)CC(C)C)[C@@H](C)O)C(C)C)C(C)C)[C@@H](C)O)C(=O)N[C@@H](C)C(=O)N[C@@H](CO)C(=O)NCC(=O)N[C@@H](CC(C)C)C(=O)N[C@@H](CC(=O)O)C(=O)N[C@@H](CCCCN)C(=O)N[C@@H](CC(=O)O)C(=O)N[C@@H](Cc1ccc(O)cc1)C(=O)N[C@@H](CC(C)C)C(=O)N[C@@H](CCCCN)C(=O)N1CCC[C@H]1C(=O)N[C@@H](CC(=O)O)C(=O)N[C@@H](CC(=O)O)C(=O)O,,,"human, serum","intravenous, 0.83 mg/kg, patients, infusion",,Vd,0.547 L/kg
CC[C@H](C)C(=O)N1CCC(NC(=O)Nc2ccc(OC(F)(F)F)c(F)c2)CC1,,,healthy volunteers,"oral, 8 mg single dose",,subjects with UTI TEAE,0%

# Excerpt of the above:
Compound,target or system,test,system,conditions,scale,quantity,result
Cc1ccccc1CN1CCC(O)(c2ccc(Cl)c(C(F)(F)F)c2)CC1,,LC-MS,"BALB/c mouse, serum","oral, 50 mg/kg",reference: intraperitoneal route,relative oral bioavailability,< 10%
COc1ccc(F)cc1S(=O)(=O)Nc1cnc2c(c1)C(=O)NCCO2,,ultracentrifugation,rat plasma,,,unbound fraction,0.141 to 0.147
